# Measurements collected from several papers.
# Numbered parts are unrelated; each lists some results of a single study. Several values in a cell are separate wells, animals, samples, runs or records.
# UniProt Q15831, sequence (whole entry, looked up): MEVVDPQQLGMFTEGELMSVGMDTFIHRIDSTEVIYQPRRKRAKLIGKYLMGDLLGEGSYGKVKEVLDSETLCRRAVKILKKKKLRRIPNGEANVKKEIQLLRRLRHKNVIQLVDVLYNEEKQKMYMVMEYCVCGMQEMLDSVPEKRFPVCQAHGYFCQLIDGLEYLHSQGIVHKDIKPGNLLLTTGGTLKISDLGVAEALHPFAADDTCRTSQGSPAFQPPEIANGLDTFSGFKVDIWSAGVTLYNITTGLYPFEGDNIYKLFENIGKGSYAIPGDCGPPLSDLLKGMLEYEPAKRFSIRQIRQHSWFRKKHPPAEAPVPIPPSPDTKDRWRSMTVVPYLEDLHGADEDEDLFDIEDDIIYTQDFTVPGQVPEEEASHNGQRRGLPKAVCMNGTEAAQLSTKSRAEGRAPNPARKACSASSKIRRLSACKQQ
# UniProt Q13976, sequence (whole entry, looked up): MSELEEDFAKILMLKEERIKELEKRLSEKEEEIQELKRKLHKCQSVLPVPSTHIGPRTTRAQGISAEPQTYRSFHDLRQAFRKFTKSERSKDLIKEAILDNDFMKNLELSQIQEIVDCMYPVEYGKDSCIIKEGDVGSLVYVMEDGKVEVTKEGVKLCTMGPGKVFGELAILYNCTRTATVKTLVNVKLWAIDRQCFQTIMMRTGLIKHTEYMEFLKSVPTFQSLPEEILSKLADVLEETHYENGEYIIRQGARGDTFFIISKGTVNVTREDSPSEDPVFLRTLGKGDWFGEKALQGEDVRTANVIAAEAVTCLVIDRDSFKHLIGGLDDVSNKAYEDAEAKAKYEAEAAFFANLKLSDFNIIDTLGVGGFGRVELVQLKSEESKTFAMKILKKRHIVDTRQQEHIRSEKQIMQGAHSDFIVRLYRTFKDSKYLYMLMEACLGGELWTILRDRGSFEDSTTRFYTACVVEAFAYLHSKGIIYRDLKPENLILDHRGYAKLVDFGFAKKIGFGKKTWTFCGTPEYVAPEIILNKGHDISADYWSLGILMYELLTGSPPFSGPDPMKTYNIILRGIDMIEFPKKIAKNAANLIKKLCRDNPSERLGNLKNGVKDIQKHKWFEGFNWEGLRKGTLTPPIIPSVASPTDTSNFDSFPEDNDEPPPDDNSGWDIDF
# UniProt Q00535, sequence (whole entry, looked up): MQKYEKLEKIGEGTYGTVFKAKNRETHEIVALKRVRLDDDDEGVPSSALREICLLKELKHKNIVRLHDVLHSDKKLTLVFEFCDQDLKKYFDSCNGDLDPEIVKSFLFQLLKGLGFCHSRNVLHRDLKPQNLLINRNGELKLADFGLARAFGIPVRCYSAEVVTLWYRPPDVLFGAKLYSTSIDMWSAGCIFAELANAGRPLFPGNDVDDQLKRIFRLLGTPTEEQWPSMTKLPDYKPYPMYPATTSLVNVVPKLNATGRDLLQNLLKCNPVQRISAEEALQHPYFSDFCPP
# UniProt O94804, sequence (whole entry, looked up): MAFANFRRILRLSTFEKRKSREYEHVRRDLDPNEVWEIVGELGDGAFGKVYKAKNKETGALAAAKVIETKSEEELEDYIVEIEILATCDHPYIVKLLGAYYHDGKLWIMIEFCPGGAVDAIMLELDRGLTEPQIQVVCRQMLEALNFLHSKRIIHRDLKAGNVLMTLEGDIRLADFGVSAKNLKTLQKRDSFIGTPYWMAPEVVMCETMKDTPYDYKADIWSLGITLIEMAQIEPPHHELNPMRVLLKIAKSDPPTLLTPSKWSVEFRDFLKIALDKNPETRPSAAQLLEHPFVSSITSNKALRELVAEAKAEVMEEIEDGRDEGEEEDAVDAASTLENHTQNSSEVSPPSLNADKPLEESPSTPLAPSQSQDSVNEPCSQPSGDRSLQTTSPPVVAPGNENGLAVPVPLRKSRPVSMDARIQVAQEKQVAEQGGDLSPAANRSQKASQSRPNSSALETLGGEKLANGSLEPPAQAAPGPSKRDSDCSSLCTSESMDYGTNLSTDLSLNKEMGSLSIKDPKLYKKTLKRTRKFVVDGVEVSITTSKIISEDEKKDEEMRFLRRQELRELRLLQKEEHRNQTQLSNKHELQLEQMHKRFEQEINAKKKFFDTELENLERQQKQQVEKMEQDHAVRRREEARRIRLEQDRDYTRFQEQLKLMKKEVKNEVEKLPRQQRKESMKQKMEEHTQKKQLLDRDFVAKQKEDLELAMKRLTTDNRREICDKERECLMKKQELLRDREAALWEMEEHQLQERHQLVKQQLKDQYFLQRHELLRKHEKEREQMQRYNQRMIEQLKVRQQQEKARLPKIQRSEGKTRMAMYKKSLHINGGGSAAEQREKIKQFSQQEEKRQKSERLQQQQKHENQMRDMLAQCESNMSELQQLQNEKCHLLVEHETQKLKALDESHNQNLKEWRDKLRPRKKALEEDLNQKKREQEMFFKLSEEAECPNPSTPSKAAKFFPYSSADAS
# UniProt P51955, sequence (whole entry, looked up): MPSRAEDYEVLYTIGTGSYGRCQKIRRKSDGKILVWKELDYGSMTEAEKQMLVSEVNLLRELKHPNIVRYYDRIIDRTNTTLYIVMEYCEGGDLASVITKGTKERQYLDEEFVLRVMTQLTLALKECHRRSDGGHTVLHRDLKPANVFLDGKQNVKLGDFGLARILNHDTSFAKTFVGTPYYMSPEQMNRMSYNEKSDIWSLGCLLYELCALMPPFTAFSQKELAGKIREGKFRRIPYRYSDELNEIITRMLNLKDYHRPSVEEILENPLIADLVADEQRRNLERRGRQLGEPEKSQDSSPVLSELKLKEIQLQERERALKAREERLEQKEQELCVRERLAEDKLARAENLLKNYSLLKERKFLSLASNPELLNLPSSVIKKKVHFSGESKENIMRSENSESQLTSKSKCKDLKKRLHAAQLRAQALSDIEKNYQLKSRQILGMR
# UniProt Q9UIK4, sequence (whole entry, looked up): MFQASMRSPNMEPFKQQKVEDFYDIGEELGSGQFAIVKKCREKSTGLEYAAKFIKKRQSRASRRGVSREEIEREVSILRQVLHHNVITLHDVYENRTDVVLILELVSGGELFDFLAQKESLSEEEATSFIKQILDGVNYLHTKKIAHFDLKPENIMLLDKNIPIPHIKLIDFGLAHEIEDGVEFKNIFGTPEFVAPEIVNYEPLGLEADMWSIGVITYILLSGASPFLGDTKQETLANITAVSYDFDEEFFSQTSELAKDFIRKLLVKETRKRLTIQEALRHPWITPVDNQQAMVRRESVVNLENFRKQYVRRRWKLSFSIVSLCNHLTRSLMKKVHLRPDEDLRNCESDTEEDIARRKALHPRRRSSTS
# UniProt P46098, sequence (whole entry, looked up): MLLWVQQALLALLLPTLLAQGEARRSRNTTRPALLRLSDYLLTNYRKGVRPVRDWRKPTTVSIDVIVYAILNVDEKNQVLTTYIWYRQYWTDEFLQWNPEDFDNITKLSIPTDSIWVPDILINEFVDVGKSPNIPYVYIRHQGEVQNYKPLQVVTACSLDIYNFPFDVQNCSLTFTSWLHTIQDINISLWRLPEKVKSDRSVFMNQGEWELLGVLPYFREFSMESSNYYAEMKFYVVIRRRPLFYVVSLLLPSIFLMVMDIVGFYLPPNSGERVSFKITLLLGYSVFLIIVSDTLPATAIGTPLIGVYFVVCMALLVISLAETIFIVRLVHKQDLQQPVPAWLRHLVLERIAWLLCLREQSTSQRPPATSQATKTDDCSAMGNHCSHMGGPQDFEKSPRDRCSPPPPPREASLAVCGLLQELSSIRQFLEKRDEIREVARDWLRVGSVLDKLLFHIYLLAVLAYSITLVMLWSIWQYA
# UniProt P45984, sequence (whole entry, looked up): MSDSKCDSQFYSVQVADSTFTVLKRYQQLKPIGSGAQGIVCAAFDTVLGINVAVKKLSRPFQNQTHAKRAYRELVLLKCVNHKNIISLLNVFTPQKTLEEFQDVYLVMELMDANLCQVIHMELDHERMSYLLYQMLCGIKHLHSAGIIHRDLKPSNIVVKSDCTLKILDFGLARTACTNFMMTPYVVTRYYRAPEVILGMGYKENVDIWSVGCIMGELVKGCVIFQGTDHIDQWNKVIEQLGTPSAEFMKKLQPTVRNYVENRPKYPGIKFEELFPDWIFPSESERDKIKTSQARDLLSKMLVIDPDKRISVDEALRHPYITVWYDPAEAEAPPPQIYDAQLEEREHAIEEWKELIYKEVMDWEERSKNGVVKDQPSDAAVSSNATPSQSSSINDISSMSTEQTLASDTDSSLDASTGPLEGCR
# UniProt Q14164, sequence (whole entry, looked up): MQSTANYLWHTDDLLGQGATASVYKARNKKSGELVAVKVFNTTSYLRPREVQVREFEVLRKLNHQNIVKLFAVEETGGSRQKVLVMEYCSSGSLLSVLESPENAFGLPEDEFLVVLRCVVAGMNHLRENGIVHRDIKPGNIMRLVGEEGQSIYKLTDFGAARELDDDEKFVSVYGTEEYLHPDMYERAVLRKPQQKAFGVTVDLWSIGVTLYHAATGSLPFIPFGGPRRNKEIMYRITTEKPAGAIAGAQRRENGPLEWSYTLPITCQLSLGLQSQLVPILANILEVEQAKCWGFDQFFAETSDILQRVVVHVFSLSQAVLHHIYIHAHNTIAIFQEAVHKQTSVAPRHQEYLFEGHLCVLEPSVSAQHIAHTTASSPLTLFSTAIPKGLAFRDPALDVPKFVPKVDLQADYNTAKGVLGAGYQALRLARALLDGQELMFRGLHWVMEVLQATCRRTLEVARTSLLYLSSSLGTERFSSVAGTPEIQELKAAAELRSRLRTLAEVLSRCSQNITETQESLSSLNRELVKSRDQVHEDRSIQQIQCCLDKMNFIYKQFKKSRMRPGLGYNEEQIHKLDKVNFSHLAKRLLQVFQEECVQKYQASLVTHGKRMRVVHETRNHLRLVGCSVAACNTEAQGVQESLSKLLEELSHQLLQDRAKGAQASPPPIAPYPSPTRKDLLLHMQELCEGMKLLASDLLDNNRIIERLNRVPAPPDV

# Block 1
# SMILES: c1ccc(Oc2ccc(Nc3c4c(nc5ccccc35)CCC4)cc2)cc1
# Organism: Leishmania infantum chagasi
# Technique: qPCR
# Host: golden hamster chronic infection
# Matrix: liver
# Route: oral
# Dose: 10 mg/kg/day
# Time: 10 days
item,threshold cycle
IL10 mRNA,32.2 cycles and 33.1 cycles and 36.8 cycles and 34.9 cycles and 36 cycles and 36.7 cycles
TNF mRNA,34.3 cycles and 29 cycles and 29.3 cycles and 30.3 cycles and 28.8 cycles and 30 cycles
IL4 mRNA,35.9 cycles and 30.2 cycles and 29.7 cycles and 28.5 cycles and 29.2 cycles

# Block 2
# Compound: CS(=O)(=O)CCNCc1ccc(-c2ccc3ncnc(Nc4ccc(OCc5cccc(F)c5)c(Cl)c4)c3c2)o1
# Observed: enzyme activity
# Action: inhibitor
# Tested at: 0.5 µM
# Reference: control
target,remaining activity
"MAPK9 (Homo sapiens, UniProt P45984)",98.1%
"NEK2 (Homo sapiens, UniProt P51955)",118%
"GRK3 (Homo sapiens, UniProt P35626)",96.7%
"STK10 (Homo sapiens, UniProt O94804)",94.8%
"DAPK2 (Homo sapiens, UniProt Q9UIK4)",103%
"cGMP-dependent protein kinase 1, isoform beta (PRKG1, Homo sapiens, UniProt Q13976)",99.7%
"STK11 (Homo sapiens, UniProt Q15831)",106%
"Cyclin-dependent kinase 5, with p25 (CDK5, Homo sapiens, UniProt Q00535)",90.4%
"IKBKE (Homo sapiens, UniProt Q14164)",94.9%

# Block 3
# Cell line: mouse MPNST tumor cells
# Technique: high-content nuclear imaging
# Item: cell number
# Tested at: 10 µM
# Time: 12 h
# Setting: mean of 2 replicates
# Reference: plate mean
# Direction: higher = more cells
Structure (SMILES),nuclei count [z-score]
C[C@H](N)[C@H](O)c1cccc(O)c1,3.4
O=C1C(=O)N(Cc2ccc(Cl)c(Cl)c2)c2ccccc21,-1.26
O=C(O)C(Cc1c[nH]c2ccccc12)N1C(=O)c2ccccc2C1=O (stereo not shown),0.174
COc1cc(COc2cc(N)c(Cl)cc2C(=O)CCC2CCN(CCNS(C)(=O)=O)CC2)cc(OC)c1,-6.35
CNCC[C@H](Oc1cccc2ccccc12)c1cccs1,-3.75
CC(C)(C)n1nc(-c2cccc3ccccc23)c2c(N)ncnc21,-1.5

# Mixed results
Compound,target,observed,technique,tested at,endpoint,result
O=C(Nc1cccnn1)N1CCC(=Cc2cccc(Oc3ccc(C(F)(F)F)cn3)c2)CC1,"5-hydroxytryptamine receptor 3A (HTR3A, Homo sapiens, UniProt P46098)",binding,radioligand binding,10 µM,inhibition,10.7%

# Repeated from above (block 3):
Structure (SMILES),nuclei count [z-score]
C[C@H](N)[C@H](O)c1cccc(O)c1,3.4
